Experimental data gathered from unrelated publications.
Every numbered part comes from another study and shows a few of its results, in no order.
Chain of UniProt P60842 (whole entry, looked up): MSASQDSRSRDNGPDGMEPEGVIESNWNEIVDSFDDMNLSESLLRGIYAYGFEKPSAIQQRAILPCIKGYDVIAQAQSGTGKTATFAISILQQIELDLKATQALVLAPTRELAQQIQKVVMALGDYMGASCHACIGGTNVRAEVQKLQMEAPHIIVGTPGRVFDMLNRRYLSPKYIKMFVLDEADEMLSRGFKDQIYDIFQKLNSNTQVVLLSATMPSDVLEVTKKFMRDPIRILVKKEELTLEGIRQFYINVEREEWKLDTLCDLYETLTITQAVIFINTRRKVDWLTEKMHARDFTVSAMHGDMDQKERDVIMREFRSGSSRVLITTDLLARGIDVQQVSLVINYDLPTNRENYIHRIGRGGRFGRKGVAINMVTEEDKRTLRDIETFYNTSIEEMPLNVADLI

Study 1
Target: TAR DNA-binding protein 43, full length, His tag (TARDBP, Homo sapiens, UniProt Q13148, residues 1-414)
Method: RNA Bind-n-Seq
Molecule type: RNA
Medium: in vitro
Tested at: 20 nM
Notes: 6-mer, flanks averaged, single round
With: 150 mM LiCl
Baseline: input library
Direction: higher = stronger binding
Sequence | 6-mer enrichment (R)
GGCCCU | 1.08
UAUGAA | 1.08
UAACCU | 0.88
GAGACA | 0.912
GUGAUA | 1.04
UAGCAU | 0.882
ACUAAU | 0.911
UAAUGU | 1.1

Study 2
Target: Phosphate system positive regulatory protein PHO4, full length, GST-tagged (PHO4, Saccharomyces cerevisiae, UniProt P07270, residues 1-312)
Method: competition protein-binding microarray
Molecule type: double-stranded DNA, one strand shown
Medium: in vitro
Tested at: 2 µM
Notes: whole 60-bp probe, lowest competitor level
With: Cbf1 competitor, 0.05 µM
Direction: higher = stronger binding
All sequences stand within: … GTCTTGATTCGCTTGACGCTGCTG
Residues (chain): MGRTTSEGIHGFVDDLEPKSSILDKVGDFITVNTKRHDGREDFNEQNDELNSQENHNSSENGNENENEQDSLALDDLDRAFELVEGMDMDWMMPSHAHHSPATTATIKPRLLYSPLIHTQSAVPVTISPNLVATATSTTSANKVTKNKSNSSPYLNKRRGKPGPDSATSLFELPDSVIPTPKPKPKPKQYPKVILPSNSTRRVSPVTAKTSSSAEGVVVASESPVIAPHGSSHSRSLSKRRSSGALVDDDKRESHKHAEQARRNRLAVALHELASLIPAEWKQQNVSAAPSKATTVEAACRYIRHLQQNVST
Sequence | fluorescence intensity
CTAACGAAGGTTTGCACAGTGGGTGACAAGCCAAGT | 3990 a.u.
CTTTTCTGCTACGGCCACGTGGCCGCAGCCCGATTT | 17300 a.u.
AAATTACTAAGTTGATTGGTGGGTGACGCCGTATGA | 3770 a.u.
ATCGATGCTTTTGGCCACATGGGAGCCATATGCCAT | 13100 a.u.
CGGGGTTAAGTTTGACATGTGGGTGGCTTGCAGCAG | 10600 a.u.
CGGGGTTAAGTTTGGGTGGTGGGTGGCTTGCAGCAG | 5540 a.u.
ACCGCTGAGGCAAGTACCGTGCAAAATGATGTGAGT | 6100 a.u.
TTGGAGCAGAACAAACACCTGATGACGCGGAAGACG | 4270 a.u.

Study 3
Target: RING finger protein unkempt homolog, zinc fingers 1-6, SBP tag (UNK, Homo sapiens, UniProt Q9C0B0, residues 30-357)
Chain of UniProt Q9C0B0 (30-357, looked up): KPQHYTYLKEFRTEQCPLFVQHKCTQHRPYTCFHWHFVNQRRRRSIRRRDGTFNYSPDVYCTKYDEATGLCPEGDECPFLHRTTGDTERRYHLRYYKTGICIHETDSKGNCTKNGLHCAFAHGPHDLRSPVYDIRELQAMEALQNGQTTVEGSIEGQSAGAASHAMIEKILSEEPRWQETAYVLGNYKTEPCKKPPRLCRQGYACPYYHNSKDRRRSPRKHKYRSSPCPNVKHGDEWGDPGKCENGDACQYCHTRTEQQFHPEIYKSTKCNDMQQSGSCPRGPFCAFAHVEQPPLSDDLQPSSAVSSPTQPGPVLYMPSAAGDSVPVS
Method: RNA Bind-n-Seq
Molecule type: RNA
Medium: in vitro
Tested at: 100 nM
Notes: RNA with constant flanks, vertebrate orthologous sites, ends assumed
Baseline: input RNA pool
Direction: higher = stronger binding
All sequences stand within: GGGAGUUCUACAGUCCGACGAUC … CAACAGAGGAUUGAGCAUCA
Sequence | bound/input enrichment [ratio]
UGUCUGCCUCAUUCUCAAAUUUACACAGUAGACCAUUUGUCAUCCAUGCUGUCCCACAAAUAGUUUUUUUGUUUACGAUUUAUGACAGGUUUAUGUUACUUCUAUUUGAAUUUCUAUAUU | 1.53
GUUUUCCUCUGAAGCAUGCACCUGCCGCCGUCACCAAAAGCAGAUCGCCUGUUUCCUUUUCAGCGUCACCCUCUUCCUUCCCCUUCCCCCUGCUUCCGAUGAGGGUUUCCGUUUGGCACC | 2.3
UUUCUGCCUUUCUCCCCCUUACUUCUUACUUUAAAACCCUUCCCCCUCUUUUUUUUAAAGGCAUAGGUAGUAACAUUAGAAAAAAGACAUUUUUGGGCAAAGCAUGUGAAUAAACAUUGA | 1.32
UAUUCGUGUCAUACCAGCAUAUUAUCUUCUCGUCUGUGCACAGCUUCAAAUGUUACCGUCUAGUUAGAUUUUUAUUUAAAAUAUGAAAAACUGCUUUUCCCAAGACGUUUUUUAAAAACA | 1.12
GUCCCGGCAGCGCCAGCGAGGGUAGCCGCCCUUCUCACACUGCUCUGUCUUUAUUUAUUUUCCUCAGGACUGACCCUGAGGCUCCAGCUUUUGUGGUUCAUCUCGUAUUUAUUUUAUCUU | 1.35
AUGAUUUUUAAUCUCUUCUCCCCUAUCCUGGUUUUAAAAGUCUUUUUUUUUUUCUUUUAGGCACAUGUAGUAACAUUAGCAGAAAGAUUUAAUUUGGGCAACUUUGAUUCUUAAAAGAGU | 0.352
GUUAGGUCAUGACCCUUAUAGGUUGGGUCAUGACGCCUACAGGUUAGGGCAGGACCCCUAUAGAUUAGGCCAUGAUCCCUAUAGACUAACUCCUGAUCCCUAUAGGAUGUCACCUAGACC | 0.722
UAUUUAGGACAACUGGAAGAAUAGCAUAUGAAAUCAACAAGUAGGAAUAGUCAAGGAGAGAAGUUACAAAUAGAGGUAGCCAAGUGACUAAAAGGAGGGAGAUGAAGGUCAUUGAAAUUC | 0.97

Study 4
Cell line: HEK-293T/ACE2
Tested at: concentration not given
Time: 16 (unit not given)
Baseline: vehicle
Compound | viability
C[C@@H](O[C@H]1OCCN(Cc2n[nH]c(=O)[nH]2)[C@H]1c1ccc(F)cc1)c1cc(C(F)(F)F)cc(C(F)(F)F)c1 | 98.7%
CC(C)Cn1cnc2c(N)nc3ccccc3c21 | 88.4%
Cc1cc(C(C)(C)C)c(O)c(C)c1CC1=NCCN1 | 101%
C#C[C@]1(O)CC[C@H]2[C@@H]3CCC4=CC(=O)CC[C@@H]4[C@H]3C(=C)C[C@@]21CC | 100%

Study 5
Target: Replicase polyprotein 1ab, main protease (rep, Severe acute respiratory syndrome coronavirus 2, UniProt P0DTD1)
Effect on: enzyme activity
Action: inhibitor
Tested at: 20 µM
Notes: hit confirmation, with DTT
SMILES | inhibition
O=C(O)[C@H]1O[C@@H](Oc2cc3oc(-c4ccccc4)cc(=O)c3c(O)c2O)[C@H](O)[C@@H](O)[C@@H]1O | -10.9%
CC[N+](C)(CC)CCC[n+]1c(-c2ccccc2)c2cc(N)ccc2c2ccc(N)cc21 | 56%
CCN(CC)C(=S)[S-].O.O.O.[Na+] | -13.9%

Study 6
Target: Replicase polyprotein 1ab, nsp13 helicase (rep, Severe acute respiratory syndrome coronavirus 2, UniProt P0DTD1)
Action: inhibitor
Tested at: 20 µM
SMILES | inhibition
CCc1c(C(=O)NCCc2ccc(N3CCCCC3)cc2)[nH]c2ccc(Cl)cc12 | 0.07%
c1ccc2c(-c3cnn4cc(-c5ccc(N6CCNCC6)cc5)cnc34)ccnc2c1 | 12.1%
Cn1cc(-c2cc(Oc3cc(F)c(NC(=O)C4(C(=O)Nc5ccccc5)CC4)cc3F)ccn2)cn1 | 6.76%
COc1c(O[C@@H]2O[C@H](CO)[C@@H](O)[C@H](O)[C@H]2O)cc2c(c1OC)-c1ccc(SC)c(=O)cc1[C@@H](NC(C)=O)CC2 | 5.44%
CC[C@@H](Nc1c(Nc2cccc(C(=O)N(C)C)c2O)c(=O)c1=O)c1ccc(C)o1 | 2.15%
O=C(O)c1cc(/N=N/c2ccc(S(=O)(=O)Nc3ccccn3)cc2)ccc1O | 2.84%
CCCCS(=O)(=O)N[C@@H](Cc1ccc(OCCCCC2CCNCC2)cc1)C(=O)O | 4.52%
COC(=O)CC[C@@H]1N=C(c2ccccn2)c2cc(Br)ccc2-n2c(C)cnc21 | 6.31%
CC(=O)O[C@]1(C(C)=O)CC[C@H]2[C@@H]3C[C@H](C)C4=CC(=O)C=C[C@]4(C)[C@@]3(F)[C@@H](O)C[C@@]21C | 4%
Cc1cccc(C)c1NC(=O)CN1CCN(CCCC(c2ccc(F)cc2)c2ccc(F)cc2)CC1 | 4.99%
N#CC(c1ccc(Cl)cc1)c1c(Cl)cc(-n2ncc(=O)[nH]c2=O)cc1Cl (stereo not drawn) | 20.1%
COc1cccc(N(C)C(=S)Oc2ccc3c(c2)CCCC3)n1 | -0.08%
C=CCc1ccc(O)c(-c2cc(CC=C)ccc2O)c1 | 4.91%
NCC(O)(CS(=O)(=O)O)c1ccc(Cl)cc1 (stereo not drawn) | 0.7%
Cc1ccc(-c2ccc(C)cn2)nc1 | -3.39%
O=C1c2ccccc2C(=O)C1c1ccc(Br)cc1 | 6.88%
COC(=O)C1=C(C)NC(C)=C(C(=O)O[C@H]2CCN(Cc3ccccc3)C2)[C@H]1c1cccc([N+](=O)[O-])c1 | 2.99%
CC1(C)S[C@@H]2[C@H](/N=C/N3CCCCCC3)C(=O)N2[C@H]1C(=O)O | 1.76%
CN1CCN(c2cc(-c3ccccc3)nc(N)n2)CC1 | -3.68%
CCS(=O)(=O)N1CC(CC#N)(n2cc(-c3ncnc4[nH]ccc34)cn2)C1 | 8.76%
OCc1ccc(-c2ccc(-c3ccc(CO)s3)o2)s1 | 58.1%
O=C(NNc1nc2cc(F)ccc2n2cccc12)c1cnccn1 | 0.68%
CC1(C)Cc2c(-c3ccccc3)c(-c3ccc(Cl)cc3)c(CC(=O)O)n2C1 | 8.83%
C=CCN1CC[C@]2(C)c3cc(O)ccc3C[C@@H]1[C@@H]2C | 7.89%
CN(C)c1ccc(/C=C2\C(=O)Nc3ccccc32)cc1 | -5.24%

Mixed results
Sequence | target | assay | test system | conditions | scale | quantity | result
GGUA | Eukaryotic initiation factor 4A-I (EIF4A1, Homo sapiens, UniProt P60842, residues 1-406, full length assumed) | RNA Bind-n-Seq | RNA, in vitro | 90 pmol, 4-mer, random 30-nt RNA, single round, with: 3 µM iPr-DMDA-PatA, 2 mM ADP, 2 mM phosphate | baseline: input library, higher = stronger binding | 4-mer enrichment | 0.904 fold

A few entries again (study 2):
Sequence | fluorescence intensity
ATCGATGCTTTTGGCCACATGGGAGCCATATGCCAT | 13100 a.u.
CGGGGTTAAGTTTGGGTGGTGGGTGGCTTGCAGCAG | 5540 a.u.
AAATTACTAAGTTGATTGGTGGGTGACGCCGTATGA | 3770 a.u.
TTGGAGCAGAACAAACACCTGATGACGCGGAAGACG | 4270 a.u.
CGGGGTTAAGTTTGACATGTGGGTGGCTTGCAGCAG | 10600 a.u.
CTAACGAAGGTTTGCACAGTGGGTGACAAGCCAAGT | 3990 a.u.
CTTTTCTGCTACGGCCACGTGGCCGCAGCCCGATTT | 17300 a.u.
